Results from different studies.
Every numbered part comes from another study and shows a few of its results, in no order.

Block 1
Target: Histone acetyltransferase KAT6A, both winged helices, GST fusion (KAT6A, Homo sapiens, UniProt Q92794, residues 1-181)
Technique: protein binding microarray
Molecule type: double-stranded DNA, one strand shown
Matrix: in vitro
Concentration: not given
Setting: 8-mer, flanks averaged, mean of 2 arrays, mostly near background
Reference: not given
Reading: higher = stronger binding
Endpoint: E-score
Target sequence (chain): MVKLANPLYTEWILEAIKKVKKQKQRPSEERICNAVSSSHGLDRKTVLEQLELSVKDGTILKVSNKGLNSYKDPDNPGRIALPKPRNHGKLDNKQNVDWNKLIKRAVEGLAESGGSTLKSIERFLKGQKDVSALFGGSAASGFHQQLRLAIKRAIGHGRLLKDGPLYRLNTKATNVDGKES
GTCTCTTA: -0.0864
ATACTAAT: -0.0822
CGGTAACC: 0.245
GGCATCCA: -0.133
AGCGCGAT: 0.246
CTCACGAC: 0.00321
ACAATTAC: -0.122
CATCCTAG: -0.123
CCTTTGAA: -0.076
AGCTTATG: -0.121
CTCCGGTC: 0.0254
CACCGTCC: 0.108
AGGTCGAC: -0.136
AGAATCAT: -0.267
GAATGGAA: -0.0662
TAGATAAA: -0.14
ACAGTATG: -0.187
AGCGTACG: 0.239
ATTTCACC: -0.114
AAGCGGGT: 0.231
ATGGTAAC: -0.0602

Block 2
Target: RNA binding protein fox-1 homolog 2, RRM domain, GST-SBP tag (RBFOX2, Homo sapiens, UniProt O43251-10, residues 100-194)
Technique: RNA Bind-n-Seq
Molecule type: RNA
Matrix: in vitro
Concentration: 365 nM
Setting: natural RNA segment, single round, ends assumed
Reference: no-protein control
Reading: higher = stronger binding
Endpoint: RBNS enrichment (R)
Target sequence (chain): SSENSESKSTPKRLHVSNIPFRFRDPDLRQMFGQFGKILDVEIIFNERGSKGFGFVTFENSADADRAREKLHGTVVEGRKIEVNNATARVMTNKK
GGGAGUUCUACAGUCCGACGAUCGCCCCAUCUGCAGGAGCCUGAAGAUCCAGCUCAAGUGCCAUCCUGCCAGUGGCCCCCAGACUGUGGGGUUGGGACGCCUGGCCUCUGUGUCCUAGAAGGGACCCUCCUGUUGGAAUUCUCGGGUGCCAA: 0.388
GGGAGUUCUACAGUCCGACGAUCUCUGGCAGGUGACUUUUGUACGAAAUGAAAAAAAAAAAACCUGUAUUUUUUUUGUUGUUCUUUUGUGAUUAAGGAUAUACAUUUAGUAGUCUUUGUUAUUAAAGGAACCUUGGAAUUCUCGGGUGCCAA: 0.676
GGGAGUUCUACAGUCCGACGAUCUCCGUAUAUUCUCCAGCUAAAUGGUCGUCUGGUAGCCUUUGCAUUUAACAAACUAGCAUGAGGCUUUUUAUAUCUAAAUGCUACGUGAUAGACAAUUUCAGCUAGCCACAUGGAAUUCUCGGGUGCCAA: 5.51
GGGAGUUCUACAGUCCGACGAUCGCAGAGAGCAGAGAGCAGCCACUGUCACUAUCUUGCCAUCUCAUUCAGGGUCCUCUGAAAGUUACCCAGGGCUCUCAUCUACUUCCCUAGAGCUUGCAGUGUAAAGUGACUGGAAUUCUCGGGUGCCAA: 0.427
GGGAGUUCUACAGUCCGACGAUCCUGGGAGGGUGGUCUUUGGGUGUUCUCAGGGGCCAAUGGUAAUUUUUGGUUGGGGAGCCAGCUUGGGGUGGGGAGUUUCACCUGGGCCUCCGCUCUCUAACUACAUAAACUGGAAUUCUCGGGUGCCAA: 0.507
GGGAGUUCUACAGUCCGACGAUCAGAGUGGCUUCAAAACAUGAGCCUUAUGGGAAGUAGCCUUAAAAAAAGAAUGGGUAUACGCAGUGACUUCCGAUGGAAAUCUCCAAAACAAUAUUCCUAAGUAGCAAUGGUGGAAUUCUCGGGUGCCAA: 0.358
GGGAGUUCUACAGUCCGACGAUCGGGUCCCCAUGGGGUGGCUCAGAGAUAGGACCCUGGUUUUAAAUCCCUCCCAGCCUGGUGCUGGUGAUGGGCCCUGGCCCUACUCCAGGGCCAAUGCACCCCCGCCUCACUGGAAUUCUCGGGUGCCAA: 0.191
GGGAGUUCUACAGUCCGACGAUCUAAGUUAAAGAAGACAAGUGUCAUCAGACACUUGGGACCCGGGCUCUCUUUAAAGUCUAGUCCCGGCAUUCCUCCAUGUGAUUGACAGCCAGACCUCUGGGUUCCCAGGAUGGAAUUCUCGGGUGCCAA: 0.189
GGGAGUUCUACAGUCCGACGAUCUGUAGUUUACUUAAGCCAAAAUGUGUUUUUUUCCCCUUGAUAGCUUCGCUAAUAUUUUAAACAGUCCUGUAAAAAACCAAAAAGGACUUUUUGUAUAGAAAGCACUACCCUGGAAUUCUCGGGUGCCAA: 0.812

Block 3
Target: Interferon regulatory factor 5, full length, phosphomimetic (IRF5, Homo sapiens, UniProt Q13568-2, residues 1-514, K96S/S451D/S453D/S456D/S462D)
Technique: protein-binding microarray
Molecule type: double-stranded DNA, one strand shown
Matrix: in vitro
Concentration: 250 nM
Setting: 60-bp whole probe
Added: salmon DNA 0.4 mg/ml
Reference: random background probes
Reading: higher = stronger binding
Endpoint: log fluorescence
All sequences stand within: GCCTAGCAC … GTCTTGATTCGCTTGACGCTGCTG
GACGGTATCTGTTTCGGGACGTGCTAG: 4.24 z-score
TTGTAGATGCCTTTCTCTTGGTGCTAG: 0.36 z-score
GTCGGACTGGACTTTCGGGACGTGCTA: 4.54 z-score
GACGTTTTCGACACTGGGGACGTGCTA: 2.62 z-score
GACTATATCGGGTATCGAGACGTGCTA: 2.32 z-score
TCACTTTTTTTTTTTTTACTGTGCTAG: 1.17 z-score
TATAGAGTAGTTTTTCAACCAGTGCTA: 0.335 z-score
AACGGACTGCTTATCCTGACGTGCTAG: -0.44 z-score
TTAGGTATCGGGTTTCGGATAGTGCTA: 5.81 z-score
ACAAATGGCCAACAAACATTGTGCTAG: 0.0797 z-score
TTAGGTCACGGTATCGGTTAGTGCTAG: 3.47 z-score
TTAGAACTGACTATCGATTAGTGCTAG: 7.36 z-score
TTAGGTATCGATACTGGGTTAGTGCTA: 8.26 z-score
GACGGTTTCCTTCTCCTGACGTGCTAG: 1.09 z-score
TCATATTAAATTTTCACACTGTGCTAG: 1.59 z-score
TCAATTCTTTTTATGCTACTGTGCTAG: 0.813 z-score
GACGATCTCAGTTTCGACACGTGCTAG: 5.88 z-score
ATAGGTCTCCTACTGCTTTAGTGCTAG: 0.0208 z-score
GACGGTATCCACTATCGGGACGTGCTA: 2.24 z-score
GACGGTATCCACTTTCGGGACGTGCTA: 6.81 z-score
TTTGGTTTCCTTATCCTTTAGTGCTAG: 1.51 z-score
GACGGACTGGGTCTCGTGACGTGCTAG: -0.493 z-score

Block 4
Target: Ras GTPase-activating protein-binding protein 1, full length (G3BP1, Homo sapiens, UniProt Q13283)
UniProt Q13283, sequence (whole entry, looked up): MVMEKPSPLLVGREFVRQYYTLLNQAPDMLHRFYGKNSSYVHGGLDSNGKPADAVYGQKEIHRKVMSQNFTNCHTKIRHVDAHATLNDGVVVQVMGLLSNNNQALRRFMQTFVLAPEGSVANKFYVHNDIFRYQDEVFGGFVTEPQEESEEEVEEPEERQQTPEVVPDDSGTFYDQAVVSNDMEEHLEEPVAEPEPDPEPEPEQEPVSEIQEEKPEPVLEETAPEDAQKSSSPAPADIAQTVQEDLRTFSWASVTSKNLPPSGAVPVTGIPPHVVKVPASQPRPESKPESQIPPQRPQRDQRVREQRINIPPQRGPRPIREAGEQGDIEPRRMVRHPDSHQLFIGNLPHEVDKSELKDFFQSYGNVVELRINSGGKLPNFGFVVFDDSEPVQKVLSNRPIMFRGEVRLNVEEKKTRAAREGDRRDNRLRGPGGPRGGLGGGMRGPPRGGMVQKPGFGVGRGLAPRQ
Technique: RNA Bind-n-Seq
Molecule type: RNA
Matrix: in vitro
Concentration: 200 nM
Setting: whole 134-nt RNA, ends assumed
Added: 150 mM LiCl
Reference: input library
Reading: higher = stronger binding
Endpoint: log2 enrichment
Library: 7-deaza-guanosine replaces G
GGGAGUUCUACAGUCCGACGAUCGUCCUGUGCUACACAUCGUAUGUACCGAAUCGGUUUUUUGGGUUUUUUGGUUUUUUGGAAAGUAUUAUGUUACGCCGUUCGGAUCUGCACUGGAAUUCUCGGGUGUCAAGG: -1.14
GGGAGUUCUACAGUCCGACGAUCUGGGAGGUGGAUUUUGUUUGUUUUUUUAGCUCAUUUCCAGGGGUGGGAAUUUUUUUUUAAUAUGUGUCAUGAAUAAAGUUGUUUUUGAAAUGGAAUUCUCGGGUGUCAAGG: 0.286
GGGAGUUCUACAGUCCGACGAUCCAAGUCCUGUGCUACACAUCGUAUGUACCGAAUCGGGAAAAAGGGUGGGUUUGGGAAAGUAUUAUGUUACGCCGUUCGGAUCUGCACUUCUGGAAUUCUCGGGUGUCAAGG: -1.02
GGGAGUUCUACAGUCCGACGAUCGUCCUGUGCUACACAUCGUAUGUACCGAAUCGGAAAAAAGGAAAAAAGGGGAAAAAAGGAAAGUAUUAUGUUACGCCGUUCGGAUCUGCAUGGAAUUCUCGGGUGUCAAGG: -0.498
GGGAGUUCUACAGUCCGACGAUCACCAUGCAGGUGGGCAUCUUUGGGAAGGGGGGCAAGGGGGGGAUAGGGAGGGGGGUAACACUUUGGGAACAGGUGGUCCCAGGUCGUUUCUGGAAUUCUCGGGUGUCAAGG: -0.125
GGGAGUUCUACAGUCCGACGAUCCCUGUGCUACACAUCGUAUGUACCGAAUCAAAUUUUUUUAAACCCCCAAAUUUUUUUAAAAAAGUAUUAUGUUACGCCGUUCGGAUCUGCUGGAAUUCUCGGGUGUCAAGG: -0.0289
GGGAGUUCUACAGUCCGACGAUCUCCUGUGCUACACAUCGUAUGUACCGAAUCGGGGAAAAAAAGGGGAGGGGAAAAAGGGGAAAGUAUUAUGUUACGCCGUUCGGAUCUGCAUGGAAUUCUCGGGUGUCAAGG: -0.325
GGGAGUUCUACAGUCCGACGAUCUGCUAGGCAAUGGAUCACUUGGAGUCCUUUAUUGCUGAAUGUGAUCGGAGAACUGAGCUCGCCAAGAAGCGGCUGGCAGAAACACAGGAGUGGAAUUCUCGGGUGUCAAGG: -0.459
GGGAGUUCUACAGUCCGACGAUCGGGGGUGACCGCCGGAGCGCGGCGUGAGCCCUCCCCCUUGGGAUCCCGCAGCUGACCAGUCGCGCUGACGGACAGACAGACAGACACCGCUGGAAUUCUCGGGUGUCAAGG: -0.572
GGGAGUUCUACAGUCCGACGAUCAAGUCCUGUGCUACACAUCGUAUGUACCGAAUCGGGGCCCGGGCCCGGGGCCCGGGGAAAGUAUUAUGUUACGCCGUUCGGAUCUGCACUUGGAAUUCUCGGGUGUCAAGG: -0.353
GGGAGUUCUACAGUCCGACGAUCCCUCAAGUCCUGUGCUACACAUCGUAUGUACCGAAUCGGGGAGGGAGGGGAGGAAAGUAUUAUGUUACGCCGUUCGGAUCUGCACUUCCAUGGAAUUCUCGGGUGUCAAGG: -0.204
